{"data": "Measurements pooled from the literature", "Grik2": "Glutamate receptor ionotropic, kainate 2 (Grik2, Rattus norvegicus, UniProt P42260)", "Tmem97": "Sigma intracellular receptor 2 (Tmem97, Rattus norvegicus, UniProt Q5U3Y7)", "CA9": "Carbonic anhydrase 9 (CA9, Homo sapiens, UniProt Q16790)", "ADH1 H49Q": "ADH1 (Saccharomyces cerevisiae, UniProt P00330, H49Q)", "note": "Each line is one published result; not all experiments were run side by side. Several values in a cell are separate wells, animals, samples, runs or records. ± gives the spread as reported.", "UniProt Q5U3Y7, sequence (whole entry, looked up)": "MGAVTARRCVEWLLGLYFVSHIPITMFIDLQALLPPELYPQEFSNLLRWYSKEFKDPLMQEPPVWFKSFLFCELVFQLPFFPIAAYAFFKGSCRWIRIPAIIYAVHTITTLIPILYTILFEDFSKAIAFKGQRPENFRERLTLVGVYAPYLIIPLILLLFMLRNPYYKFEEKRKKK", "UniProt P00330, sequence (whole entry, unmodified, looked up)": "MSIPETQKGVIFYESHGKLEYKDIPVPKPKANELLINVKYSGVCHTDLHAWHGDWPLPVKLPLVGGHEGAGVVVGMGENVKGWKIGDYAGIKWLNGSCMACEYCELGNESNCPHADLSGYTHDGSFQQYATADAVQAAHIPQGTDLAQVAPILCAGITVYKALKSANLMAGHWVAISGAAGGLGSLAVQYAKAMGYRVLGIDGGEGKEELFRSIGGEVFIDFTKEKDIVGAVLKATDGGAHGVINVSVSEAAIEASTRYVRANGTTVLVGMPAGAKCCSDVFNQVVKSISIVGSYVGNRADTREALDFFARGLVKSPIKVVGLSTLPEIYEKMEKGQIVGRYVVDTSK", "UniProt Q9NWT6, sequence (whole entry, unmodified, looked up)": "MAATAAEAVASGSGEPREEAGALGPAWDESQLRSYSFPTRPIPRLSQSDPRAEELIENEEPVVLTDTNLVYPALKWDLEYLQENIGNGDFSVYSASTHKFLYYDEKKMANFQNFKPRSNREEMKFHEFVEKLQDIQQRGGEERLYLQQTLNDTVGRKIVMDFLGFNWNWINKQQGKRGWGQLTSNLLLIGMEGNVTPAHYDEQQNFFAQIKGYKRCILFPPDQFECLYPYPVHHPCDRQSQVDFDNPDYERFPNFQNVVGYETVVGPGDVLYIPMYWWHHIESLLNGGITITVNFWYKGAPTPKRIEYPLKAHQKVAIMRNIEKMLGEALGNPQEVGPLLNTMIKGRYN", "UniProt P42260, sequence (whole entry, looked up)": "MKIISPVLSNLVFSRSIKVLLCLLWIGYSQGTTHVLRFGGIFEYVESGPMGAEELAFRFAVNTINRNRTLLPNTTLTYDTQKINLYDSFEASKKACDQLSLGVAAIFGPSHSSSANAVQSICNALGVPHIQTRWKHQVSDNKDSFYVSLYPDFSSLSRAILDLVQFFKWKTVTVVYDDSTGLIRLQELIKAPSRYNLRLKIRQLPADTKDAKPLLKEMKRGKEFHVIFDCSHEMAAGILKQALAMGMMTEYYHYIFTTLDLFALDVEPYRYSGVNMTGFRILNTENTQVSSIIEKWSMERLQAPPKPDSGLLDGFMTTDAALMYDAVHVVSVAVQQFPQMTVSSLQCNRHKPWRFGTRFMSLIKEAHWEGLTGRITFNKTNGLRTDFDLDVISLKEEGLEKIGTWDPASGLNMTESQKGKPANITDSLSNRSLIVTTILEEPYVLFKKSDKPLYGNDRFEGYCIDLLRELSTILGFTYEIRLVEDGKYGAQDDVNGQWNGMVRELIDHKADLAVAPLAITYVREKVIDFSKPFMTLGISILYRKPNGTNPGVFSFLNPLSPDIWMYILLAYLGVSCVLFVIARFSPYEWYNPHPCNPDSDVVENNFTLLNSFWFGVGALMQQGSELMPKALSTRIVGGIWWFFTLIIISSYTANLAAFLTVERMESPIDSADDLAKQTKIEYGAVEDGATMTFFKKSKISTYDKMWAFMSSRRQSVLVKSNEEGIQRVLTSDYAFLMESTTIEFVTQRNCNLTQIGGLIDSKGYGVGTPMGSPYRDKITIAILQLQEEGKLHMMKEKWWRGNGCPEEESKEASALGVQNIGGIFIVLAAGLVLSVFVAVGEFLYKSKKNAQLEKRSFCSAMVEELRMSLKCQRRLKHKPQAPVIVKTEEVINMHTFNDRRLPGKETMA", "UniProt P28566, sequence (whole entry, looked up)": "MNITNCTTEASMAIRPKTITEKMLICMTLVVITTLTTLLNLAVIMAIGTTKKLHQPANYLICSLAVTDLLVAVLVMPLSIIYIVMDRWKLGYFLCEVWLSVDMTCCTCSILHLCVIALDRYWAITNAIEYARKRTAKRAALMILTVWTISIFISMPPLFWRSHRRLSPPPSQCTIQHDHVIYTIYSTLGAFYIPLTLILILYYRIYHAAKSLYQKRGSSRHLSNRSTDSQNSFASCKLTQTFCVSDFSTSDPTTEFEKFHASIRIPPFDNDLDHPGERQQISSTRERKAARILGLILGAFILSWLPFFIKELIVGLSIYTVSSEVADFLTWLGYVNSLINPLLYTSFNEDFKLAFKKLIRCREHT", "UniProt Q2FDS6, sequence (whole entry, looked up)": "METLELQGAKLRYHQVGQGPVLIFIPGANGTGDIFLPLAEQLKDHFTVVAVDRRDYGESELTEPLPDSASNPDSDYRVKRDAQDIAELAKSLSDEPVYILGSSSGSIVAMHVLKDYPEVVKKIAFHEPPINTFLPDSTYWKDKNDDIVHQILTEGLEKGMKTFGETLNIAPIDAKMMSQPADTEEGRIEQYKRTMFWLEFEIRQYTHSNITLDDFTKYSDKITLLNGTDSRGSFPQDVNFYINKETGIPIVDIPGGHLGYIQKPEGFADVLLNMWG", "UniProt Q96NT5, sequence (whole entry, unmodified, looked up)": "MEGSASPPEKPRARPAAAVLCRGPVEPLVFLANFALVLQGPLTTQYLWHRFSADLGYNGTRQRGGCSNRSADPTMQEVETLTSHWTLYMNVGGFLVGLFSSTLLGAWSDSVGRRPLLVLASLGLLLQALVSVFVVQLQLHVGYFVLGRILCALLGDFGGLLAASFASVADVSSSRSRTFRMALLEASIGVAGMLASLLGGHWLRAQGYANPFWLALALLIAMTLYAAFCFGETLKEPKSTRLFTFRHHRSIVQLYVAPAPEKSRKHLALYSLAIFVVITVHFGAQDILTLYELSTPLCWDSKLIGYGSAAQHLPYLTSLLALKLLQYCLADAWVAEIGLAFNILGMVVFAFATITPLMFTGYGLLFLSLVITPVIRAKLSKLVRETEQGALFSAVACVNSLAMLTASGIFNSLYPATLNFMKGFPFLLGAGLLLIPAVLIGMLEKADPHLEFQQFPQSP", "UniProt Q86TI2, sequence (whole entry, looked up)": "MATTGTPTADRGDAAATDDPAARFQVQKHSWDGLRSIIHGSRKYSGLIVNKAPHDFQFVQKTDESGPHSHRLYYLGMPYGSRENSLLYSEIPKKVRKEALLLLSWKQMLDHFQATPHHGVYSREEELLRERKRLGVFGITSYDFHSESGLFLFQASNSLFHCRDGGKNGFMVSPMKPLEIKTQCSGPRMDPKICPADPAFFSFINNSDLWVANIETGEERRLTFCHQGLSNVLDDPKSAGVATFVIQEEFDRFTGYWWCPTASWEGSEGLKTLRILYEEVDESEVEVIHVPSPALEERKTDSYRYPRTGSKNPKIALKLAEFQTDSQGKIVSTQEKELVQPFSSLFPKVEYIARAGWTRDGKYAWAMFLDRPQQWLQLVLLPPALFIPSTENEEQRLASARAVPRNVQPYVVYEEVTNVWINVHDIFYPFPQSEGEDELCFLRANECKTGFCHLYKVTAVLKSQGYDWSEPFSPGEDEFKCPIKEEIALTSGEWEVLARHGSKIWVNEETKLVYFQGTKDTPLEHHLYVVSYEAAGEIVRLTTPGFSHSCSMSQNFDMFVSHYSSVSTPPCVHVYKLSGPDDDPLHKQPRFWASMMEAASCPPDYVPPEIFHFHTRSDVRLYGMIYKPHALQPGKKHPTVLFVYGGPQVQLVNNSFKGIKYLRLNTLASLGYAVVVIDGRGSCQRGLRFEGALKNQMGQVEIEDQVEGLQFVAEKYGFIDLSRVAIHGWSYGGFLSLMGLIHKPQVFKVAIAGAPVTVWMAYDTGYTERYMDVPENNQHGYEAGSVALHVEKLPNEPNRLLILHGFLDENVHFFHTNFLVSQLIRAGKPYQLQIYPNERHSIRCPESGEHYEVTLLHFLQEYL", "UniProt Q60492, sequence (whole entry, looked up)": "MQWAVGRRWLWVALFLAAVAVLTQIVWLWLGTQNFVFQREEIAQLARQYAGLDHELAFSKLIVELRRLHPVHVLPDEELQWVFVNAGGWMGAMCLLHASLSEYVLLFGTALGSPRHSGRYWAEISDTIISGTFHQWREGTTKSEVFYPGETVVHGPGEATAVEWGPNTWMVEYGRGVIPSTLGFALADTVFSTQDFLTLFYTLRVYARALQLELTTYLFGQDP", "UniProt P08912, sequence (whole entry, looked up)": "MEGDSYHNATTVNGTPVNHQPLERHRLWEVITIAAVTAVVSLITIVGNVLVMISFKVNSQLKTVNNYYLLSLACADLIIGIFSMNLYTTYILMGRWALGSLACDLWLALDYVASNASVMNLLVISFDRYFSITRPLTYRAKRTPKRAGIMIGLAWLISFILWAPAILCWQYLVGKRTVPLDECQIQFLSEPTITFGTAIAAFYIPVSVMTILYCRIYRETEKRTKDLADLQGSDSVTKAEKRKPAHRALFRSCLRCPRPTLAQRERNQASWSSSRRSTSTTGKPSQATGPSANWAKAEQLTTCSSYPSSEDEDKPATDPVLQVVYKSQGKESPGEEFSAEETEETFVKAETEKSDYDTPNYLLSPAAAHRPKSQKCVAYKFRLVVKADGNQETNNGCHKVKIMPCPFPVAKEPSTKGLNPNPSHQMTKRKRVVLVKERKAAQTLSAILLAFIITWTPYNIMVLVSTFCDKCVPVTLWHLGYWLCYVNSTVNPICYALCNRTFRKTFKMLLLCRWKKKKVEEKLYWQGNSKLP"}
{"Compound": "CC[C@H](C)[C@H](NC(=O)[C@H](Cc1ccccc1)NC(=O)[C@H](CCC(=O)O)NC(=O)[C@H](CCCNC(=N)N)NC(=O)[C@H](C)NC(=O)[C@H](C)NC(=O)[C@H](CCC(N)=O)NC(=O)[C@H](CCC(=O)O)NC(=O)[C@H](CCC(=O)O)NC(=O)[C@H](CC(C)C)NC(=O)[C@H](Cc1ccc(O)cc1)NC(=O)[C@H](CO)NC(=O)[C@H](CO)NC(=O)[C@@H](NC(=O)[C@H](CC(=O)O)NC(=O)[C@H](CO)NC(=O)[C@@H](NC(=O)[C@H](Cc1ccccc1)NC(=O)[C@@H](NC(=O)CNC(=O)[C@H](CCC(=O)O)NC(=O)[C@H](C)NC(=O)CCc1c[nH]cn1)[C@@H](C)O)[C@@H](C)O)C(C)C)C(=O)N[C@@H](C)C(=O)N[C@@H](Cc1c[nH]c2ccccc12)C(=O)N[C@@H](CC(C)C)C(=O)N[C@H](C(=O)N[C@@H](CCCNC(=N)N)C(=O)NCC(=O)N[C@@H](CCCNC(=N)N)C(=O)N[C@@H](CCCCNC(=O)COCCOCCNC(=O)COCCOCCNC(=O)CC[C@H](NC(=O)CCCCCCCCCCCCCCCCC(=O)O)C(=O)O)C(=O)NCC(=O)NCC(=O)N[C@@H](CO)C(=O)N[C@@H](CCCCNc1c(NCCCCCN(O)C(=O)CCC(=O)NCCCCCN(O)C(=O)CCC(=O)NCCCCCN(O)C(C)=O)c(=O)c1=O)C(=O)O)C(C)C [zirconium-89 labelled]", "system": "rat, heart", "conditions": "iv, 3 nmol/kg, 4 h, ex vivo", "quantity": "tissue uptake", "result": "0.47 %ID/g"}
{"Compound": "COCC1OC2CC(CC(N)C(=O)O)(C(=O)O)OC2C(O)C1O (stereo not shown)", "tested on": "Grik2", "assay": "[3H]kainate displacement", "system": "HEK-293T/17 membranes", "conditions": "together with: [3H]kainate", "quantity": "Ki", "result": "2.4 µM"}
{"Compound": "Cc1ccc2c(c1)C1(C=C2)CCN(C2Cc3ccccc3CC2O)CC1 (racemic)", "tested on": "Tmem97", "assay": "radioligand binding", "system": "rat liver", "conditions": "together with: [3H]DTG, 1 µM dextrallorphan mask", "quantity": "Ki", "result": "0.62 ± 0.26 µM"}
{"Compound": "Nc1nc2c(c(=O)[nH]1)N(C=O)[C@H](CNc1ccc(C(=O)N[C@@H](CCC(=O)O)C(=O)O)cc1)CN2", "tested on": "Proton-coupled folate transporter, E247R; ThTr1 chimera (Homo sapiens, UniProt Q96NT5)", "assay": "[3H]methotrexate uptake, inhibitor, Dixon plot", "system": "transfected cells tp-E247R", "conditions": "pH 5.5, together with: [3H]methotrexate 0.5 µM", "quantity": "Ki", "result": "0.53 ± 0.18 µM"}
{"Compound": "OB(O)c1csc2ccccc12", "tested on": "Uncharacterized hydrolase SAUSA300_2518 (Staphylococcus aureus, UniProt Q2FDS6)", "assay": "enzyme activity, inhibitor", "quantity": "Ki", "result": "0.012 µM"}
{"Compound": "Cc1cccc(C)c1N1C(=O)[C@H](CC2CNc3ccccc32)NC2(CCN(C)CC2)C1=O (stereo partly shown)", "tested on": "Tmem97", "quantity": "Ki", "result": "> 10 µM"}
{"Compound": "O=C(Nc1ccc(C(F)(F)F)cc1)Nc1ccc2c(c1)C=CCP(=O)(O)O2", "tested on": "CA9", "quantity": "Ki", "result": "0.0427 µM"}
{"Compound": "NC(CC1(C(=O)O)CC2OC(CO)C(O)C(N)C2O1)C(=O)O (stereo not shown)", "tested on": "Gria2 (Rattus norvegicus, UniProt P19491)", "assay": "[3H]AMPA displacement", "system": "HEK-293T/17 membranes", "quantity": "Ki", "result": "> 10 µM"}
{"Compound": "CN1CCC2=C(C1)c1ccccc1Cc1ccccc12", "tested on": "HTR1E (Homo sapiens, UniProt P28566)", "assay": "binding", "quantity": "Ki", "result": "0.0293 µM"}
{"Compound": "Cn1c(=O)n(CCCCN2CCC3(CC2)OCc2ccccc23)c2ccccc21", "tested on": "Sigma-2 receptor (Cavia porcellus, UniProt H0V073)", "assay": "binding, high-affinity site", "system": "guinea pig brain membranes", "conditions": "together with: 200 nM [3H]DTG, (+)-pentazocine present", "quantity": "Ki", "result": "0.00231 µM"}
{"Compound": "Cc1ccc(NC(=O)Nc2ccc3c(c2)C=CCP(=O)(O)O3)cc1", "tested on": "CA9", "quantity": "Ki", "result": "0.0469 µM"}
{"Compound": "NC(CC1(C(=O)O)CC2OC(CO)C(O)C(O)C2O1)C(=O)O (stereo not shown)", "tested on": "Grik2", "assay": "binding", "system": "HEK293T/17 membranes", "conditions": "together with: [3H]kainate", "quantity": "Ki", "result": "0.834 µM"}
{"Compound": "O=C(O)CCC(=O)C(=O)O", "tested on": "HIF1AN (Homo sapiens, UniProt Q9NWT6, E105A)", "assay": "cosubstrate", "conditions": "pH 7.00, 37.0 °C, mutant E105A, together with: CTAD peptide 100 µM", "quantity": "Ki", "result": "~300 µM and 430 µM"}
{"Compound": "O=C(c1ccc(Cl)cc1)N1CCN2C(=O)N(OC(=O)N3CCOc4ccccc43)C(=O)C2C1 (stereo not shown)", "tested on": "DPP9 (Homo sapiens, UniProt Q86TI2)", "assay": "MS-based ABPP", "system": "SW-620 conditioned medium", "conditions": "10 µM, 1 h, 37 °C", "scale": "reference: compound over DMSO, lower = more inhibition", "quantity": "mean protein ratio", "result": 1.03}
{"Compound": "C[C@H]1N/C(=C\\[N+](=O)[O-])N(Cc2ccc(Cl)nc2)[C@H]1C", "assay": "radioligand binding", "system": "Musca domestica head membranes", "conditions": "together with: [3H]imidacloprid", "quantity": "Ki", "result": "0.00214 ± 0.00045 µM"}
{"Compound": "CC1=Cc2ccccc2C12CCN(C1Cc3ccccc3CC1O)CC2 (racemic)", "tested on": "Tmem97", "assay": "radioligand binding", "system": "rat liver", "conditions": "together with: [3H]DTG, 1 µM dextrallorphan mask", "quantity": "Ki", "result": "1.7 ± 0.6 µM"}
{"Compound": "C=CC(O)CO (stereo not shown)", "tested on": "Cytochrome P450 2E1 (Cyp2e1, Mus musculus, UniProt Q05421)", "assay": "4-nitrophenol oxidation, inhibitor", "system": "B6C3F1 mouse, liver microsomes", "conditions": "30 min, pH 7.4, binding to substrate-bound enzyme", "quantity": "Ki", "result": "2100 µM"}
{"Compound": "Oc1ccc(N=Nc2ccc(-c3nc4ccccc4s3)cc2)c2cccnc12", "tested on": "Amyloid-beta precursor protein, Aβ40 fibrils (APP, Homo sapiens, UniProt P05067)", "assay": "binding to Aβ fibrils, thioflavin T competition", "conditions": "Aβ 5 µM, together with: ThT 2 µM", "quantity": "Ki", "result": "1.1 µM"}
{"Compound": "O=C(Nc1ccc2c(c1)C=CCP(=O)(O)O2)c1ccc([N+](=O)[O-])cc1", "tested on": "CA9", "quantity": "Ki", "result": "0.0294 µM"}
{"Compound": "COc1ccc(N2C(=O)N(c3c(C)cccc3Cl)Cc3cnc(Nc4ccc(C5CCN(C)CC5)cc4OC)nc32)nc1", "tested on": "ATR (Homo sapiens, UniProt Q13535)", "assay": "kinase activity", "conditions": "0.5 µM", "quantity": "inhibition", "result": "-10%"}
{"Compound": "Cc1ccc2c(c1)C=CC21CCN(C2Cc3ccccc3CC2O)CC1 (racemic)", "tested on": "Tmem97", "assay": "binding, radioligand displacement", "system": "rat liver membranes", "conditions": "together with: [3H]DTG, dextrallorphan 1 µM masking", "quantity": "Ki", "result": "0.37 ± 0.15 µM"}
{"Compound": "COc1cc2c(Oc3ccc4[nH]c(C)cc4c3F)ccnc2cc1OCC1(N)CC1", "system": "paediatric refractory sarcoma patients", "conditions": "12 mg", "quantity": "Myalgia incidence", "result": "0%"}
{"Compound": "O=C(Nc1ccc2c(c1)C=CCP(=O)(O)O2)c1ccccc1I", "tested on": "CA9", "quantity": "Ki", "result": "0.0146 µM"}
{"Compound": "OC(c1ccc(F)cc1)C(F)(F)CCN1CCC(O)(c2ccc(Cl)cc2)CC1 (racemic)", "tested on": "SIGMAR1 (Cavia porcellus, UniProt Q60492)", "quantity": "Ki", "result": "0.0018 ± 0.00052 µM"}
{"Compound": "COc1cc2c(cc1OCC1CC1)NC(=O)C21CCN(c2cc(NC3CC3)ncn2)CC1", "tested on": "Vero-E6", "assay": "CellTiter-Glo ATP", "conditions": "72 h, retest 8-point duplicates", "scale": "reference: DMSO 0%, hyamine -100%, more negative, more toxic", "quantity": "maximum response", "result": "-10.1%"}
{"Compound": "O=C(Nc1cccc(C(F)(F)F)c1)Nc1ccc2c(c1)C=CCP(=O)(O)O2", "tested on": "CA9", "quantity": "Ki", "result": "0.0319 µM"}
{"Compound": "C[C@H]1CN(c2n[nH]c3nc(N[C@H]4CC[C@H](NS(=O)(=O)CCC(F)(F)F)CC4)ncc23)CCO1", "tested on": "UBR4 (Homo sapiens, UniProt Q5T4S7)", "assay": "inhibitor, Kinobeads competition profiling", "conditions": "0.16 µM", "scale": "reference: vehicle", "quantity": "relative abundance", "result": 1.13}
{"Compound": "NC(=O)c1ccc[n+]([C@@H]2O[C@H](COP(=O)([O-])OP(=O)(O)OC[C@H]3O[C@@H](n4cnc5c(N)ncnc54)[C@H](O)[C@@H]3O)[C@@H](O)[C@H]2O)c1", "tested on": "ADH1 H49Q", "assay": "enzyme activity, inhibitor", "conditions": "pH 7.3, 30 °C", "quantity": "Ki", "result": "410 µM"}
{"Compound": "CCOP1(=O)CC=Cc2cc(N)ccc2O1 (stereo not shown)", "tested on": "CA9", "quantity": "Ki", "result": "0.0035 µM"}
{"Compound": "CCN(CC)CCNC(=O)c1ccc(-c2nc(CN3CCc4ccccc43)c(C)o2)cc1", "tested on": "Vero-E6", "assay": "CellTiter-Glo ATP", "conditions": "72 h, retest 8-point duplicates", "scale": "reference: DMSO 0%, hyamine -100%, more negative, more toxic", "quantity": "maximum response", "result": "-13.2%"}
{"Compound": "Cc1cccc(C)c1N1C(=O)CNC2(CCN(C)CC2)C1=O", "tested on": "Tmem97", "quantity": "Ki", "result": "> 10 µM"}
{"Compound": "CCO", "tested on": "ADH1 H49Q", "assay": "inhibitor", "conditions": "pH 7.3", "quantity": "Ki", "result": "27000 µM"}
{"Compound": "C[C@@H](O)[C@@H](CO)NC(=O)[C@@H](CCCNC(=N)N)NC(=O)[C@@H]1CCCN1C(=O)[C@@H]1CSSC[C@H](NC(=O)[C@H](Cc2ccccc2)NC(=O)CN2CCN(CC(=O)O)CCN(CC(=O)O)CCN(CC(=O)O)CC2)C(=O)N[C@@H](Cc2ccc(O)cc2)C(=O)N[C@@H](Cc2ccccc2)C(=O)N[C@@H](CCC(N)=O)C(=O)N[C@@H](CC(N)=O)C(=O)N1 [gallium-68 labelled]", "system": "healthy Wistar rat, thyroid", "conditions": "intravenous, 8 MBq, 60 min, individual animals", "quantity": "tissue uptake", "result": "0.13 %ID/g"}
{"Compound": "Cc1ccc(C(=O)Nc2ccc3c(c2)C=CCP(=O)(O)O3)cc1", "tested on": "CA9", "quantity": "Ki", "result": "0.0205 µM"}
{"Compound": "O=[As](O)(O)c1ccc(Cc2ccc([As](=O)(O)O)cc2)cc1", "tested on": "Autotaxin (ENPP2, Homo sapiens, UniProt Q13822)", "assay": "lysoPLD activity", "conditions": "pH 8.0, together with: FS-3", "quantity": "Ki", "result": "0.24 ± 0.045 µM"}
{"Compound": "O=C(Nc1ccc(I)cc1)Nc1ccc2c(c1)C=CCP(=O)(O)O2", "tested on": "CA9", "quantity": "Ki", "result": "0.036 µM"}
{"Compound": "COc1cc(Nc2ncc(F)c(Nc3ccc4c(n3)NC(=O)C(C)(C)O4)n2)cc(OC)c1OC", "tested on": "CHRM5 (Homo sapiens, UniProt P08912)", "quantity": "IC50", "result": "> 10 µM"}
{"note": "A few entries again:"}
{"Compound": "CN1CCC2=C(C1)c1ccccc1Cc1ccccc12", "tested on": "HTR1E (Homo sapiens, UniProt P28566)", "assay": "binding", "quantity": "Ki", "result": "0.0293 µM"}
{"Compound": "Cc1ccc2c(c1)C1(C=C2)CCN(C2Cc3ccccc3CC2O)CC1 (racemic)", "tested on": "Tmem97", "assay": "radioligand binding", "system": "rat liver", "conditions": "together with: [3H]DTG, 1 µM dextrallorphan mask", "quantity": "Ki", "result": "0.62 ± 0.26 µM"}
